Assay results of several laboratories.
A part holds a random share of what one study measured. “And” joins repeats or separate records; there may be more than shown.
Chain of UniProt O75582 (whole entry, looked up): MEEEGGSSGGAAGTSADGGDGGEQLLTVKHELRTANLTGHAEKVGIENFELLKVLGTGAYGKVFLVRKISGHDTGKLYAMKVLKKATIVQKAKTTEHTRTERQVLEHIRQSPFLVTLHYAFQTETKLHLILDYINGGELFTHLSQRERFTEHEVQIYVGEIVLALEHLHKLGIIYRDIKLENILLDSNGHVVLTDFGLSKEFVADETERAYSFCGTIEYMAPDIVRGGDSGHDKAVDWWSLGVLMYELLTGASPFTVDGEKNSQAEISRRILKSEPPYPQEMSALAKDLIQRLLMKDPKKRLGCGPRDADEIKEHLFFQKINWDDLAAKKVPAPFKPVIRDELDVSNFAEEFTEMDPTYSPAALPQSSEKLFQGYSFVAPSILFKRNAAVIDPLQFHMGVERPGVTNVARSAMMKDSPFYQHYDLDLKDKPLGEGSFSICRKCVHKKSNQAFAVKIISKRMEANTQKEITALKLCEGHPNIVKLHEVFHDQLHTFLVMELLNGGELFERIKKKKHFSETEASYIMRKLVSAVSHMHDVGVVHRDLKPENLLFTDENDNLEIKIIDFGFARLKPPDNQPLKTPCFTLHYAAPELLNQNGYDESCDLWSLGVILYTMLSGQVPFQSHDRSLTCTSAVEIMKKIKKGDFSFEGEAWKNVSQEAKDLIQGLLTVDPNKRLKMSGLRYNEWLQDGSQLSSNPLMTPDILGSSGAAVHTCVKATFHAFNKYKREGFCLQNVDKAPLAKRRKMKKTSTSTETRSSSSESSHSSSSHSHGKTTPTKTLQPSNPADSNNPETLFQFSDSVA
Chain of UniProt Q15208 (whole entry, looked up): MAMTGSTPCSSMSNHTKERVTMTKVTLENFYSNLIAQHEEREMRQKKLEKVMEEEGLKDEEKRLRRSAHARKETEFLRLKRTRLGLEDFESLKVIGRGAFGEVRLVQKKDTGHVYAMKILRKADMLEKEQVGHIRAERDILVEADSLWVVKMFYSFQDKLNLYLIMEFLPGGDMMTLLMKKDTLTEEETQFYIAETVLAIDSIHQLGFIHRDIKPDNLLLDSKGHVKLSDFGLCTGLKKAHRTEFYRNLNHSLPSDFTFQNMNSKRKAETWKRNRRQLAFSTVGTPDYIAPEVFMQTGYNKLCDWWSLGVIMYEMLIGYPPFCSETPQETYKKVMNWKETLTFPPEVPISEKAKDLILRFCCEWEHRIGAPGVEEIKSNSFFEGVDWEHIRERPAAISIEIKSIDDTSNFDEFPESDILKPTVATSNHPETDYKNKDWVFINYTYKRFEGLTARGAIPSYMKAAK
Chain of UniProt Q6ZWH5 (whole entry, looked up): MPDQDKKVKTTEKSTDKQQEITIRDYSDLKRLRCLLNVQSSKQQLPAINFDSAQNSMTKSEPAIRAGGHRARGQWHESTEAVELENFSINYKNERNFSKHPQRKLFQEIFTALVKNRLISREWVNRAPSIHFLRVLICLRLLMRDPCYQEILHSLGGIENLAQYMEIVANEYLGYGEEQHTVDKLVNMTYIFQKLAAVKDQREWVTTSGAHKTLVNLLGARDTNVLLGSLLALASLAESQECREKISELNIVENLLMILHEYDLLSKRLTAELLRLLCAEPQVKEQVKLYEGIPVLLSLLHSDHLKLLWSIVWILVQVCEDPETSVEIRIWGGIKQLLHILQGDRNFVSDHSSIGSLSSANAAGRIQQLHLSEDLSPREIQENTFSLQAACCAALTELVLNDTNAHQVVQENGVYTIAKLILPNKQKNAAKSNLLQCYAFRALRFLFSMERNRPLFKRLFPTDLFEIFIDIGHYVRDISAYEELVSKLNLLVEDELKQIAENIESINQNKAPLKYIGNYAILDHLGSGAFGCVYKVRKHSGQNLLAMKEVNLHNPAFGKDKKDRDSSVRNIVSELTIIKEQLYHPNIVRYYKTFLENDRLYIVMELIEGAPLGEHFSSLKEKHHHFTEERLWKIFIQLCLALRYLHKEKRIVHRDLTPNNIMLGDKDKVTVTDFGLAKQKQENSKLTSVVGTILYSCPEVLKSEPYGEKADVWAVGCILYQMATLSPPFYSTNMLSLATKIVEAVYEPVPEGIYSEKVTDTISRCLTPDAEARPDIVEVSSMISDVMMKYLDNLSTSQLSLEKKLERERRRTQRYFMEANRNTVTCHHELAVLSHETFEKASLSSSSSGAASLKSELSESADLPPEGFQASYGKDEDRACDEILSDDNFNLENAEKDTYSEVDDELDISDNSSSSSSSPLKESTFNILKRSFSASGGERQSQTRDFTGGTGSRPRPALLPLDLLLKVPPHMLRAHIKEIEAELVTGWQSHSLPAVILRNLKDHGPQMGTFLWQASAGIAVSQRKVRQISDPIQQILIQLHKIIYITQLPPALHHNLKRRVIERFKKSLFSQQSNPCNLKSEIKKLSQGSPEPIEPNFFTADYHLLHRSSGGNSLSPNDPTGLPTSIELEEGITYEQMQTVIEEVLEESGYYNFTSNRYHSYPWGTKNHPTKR
Chain of UniProt Q8NG66 (whole entry, looked up): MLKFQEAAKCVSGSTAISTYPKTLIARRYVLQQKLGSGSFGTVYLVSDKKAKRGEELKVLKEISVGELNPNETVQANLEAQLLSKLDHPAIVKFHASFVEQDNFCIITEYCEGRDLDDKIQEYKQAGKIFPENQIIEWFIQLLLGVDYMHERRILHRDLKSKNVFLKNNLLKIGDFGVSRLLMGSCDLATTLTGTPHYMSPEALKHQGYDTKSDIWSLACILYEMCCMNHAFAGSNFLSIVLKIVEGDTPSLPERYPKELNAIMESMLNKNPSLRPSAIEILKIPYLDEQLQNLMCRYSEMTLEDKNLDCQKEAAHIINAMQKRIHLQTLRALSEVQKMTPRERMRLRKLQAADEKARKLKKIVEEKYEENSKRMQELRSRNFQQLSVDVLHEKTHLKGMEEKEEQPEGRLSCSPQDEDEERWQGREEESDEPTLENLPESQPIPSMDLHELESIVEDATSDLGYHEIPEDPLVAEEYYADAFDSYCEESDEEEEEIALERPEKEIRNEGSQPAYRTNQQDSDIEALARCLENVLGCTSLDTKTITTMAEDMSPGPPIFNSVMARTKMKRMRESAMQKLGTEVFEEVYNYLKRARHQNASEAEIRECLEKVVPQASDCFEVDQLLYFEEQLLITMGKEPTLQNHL
Chain of UniProt P42680 (whole entry, looked up): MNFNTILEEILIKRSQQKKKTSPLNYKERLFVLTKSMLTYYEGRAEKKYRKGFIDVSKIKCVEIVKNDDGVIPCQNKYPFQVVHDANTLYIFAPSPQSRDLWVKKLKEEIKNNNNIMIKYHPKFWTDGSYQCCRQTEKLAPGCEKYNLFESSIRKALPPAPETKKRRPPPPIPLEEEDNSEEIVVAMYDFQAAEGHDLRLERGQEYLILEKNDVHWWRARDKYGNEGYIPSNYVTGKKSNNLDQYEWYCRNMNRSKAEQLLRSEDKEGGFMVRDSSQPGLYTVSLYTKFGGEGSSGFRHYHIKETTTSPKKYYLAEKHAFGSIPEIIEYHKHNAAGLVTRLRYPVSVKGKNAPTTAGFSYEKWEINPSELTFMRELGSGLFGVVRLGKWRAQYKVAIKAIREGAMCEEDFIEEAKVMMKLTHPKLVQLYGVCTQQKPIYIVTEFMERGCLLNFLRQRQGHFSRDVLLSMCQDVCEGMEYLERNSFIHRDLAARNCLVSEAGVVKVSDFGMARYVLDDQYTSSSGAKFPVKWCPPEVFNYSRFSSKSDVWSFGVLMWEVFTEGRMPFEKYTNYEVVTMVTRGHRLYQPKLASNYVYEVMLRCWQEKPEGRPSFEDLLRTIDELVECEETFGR
Chain of UniProt P04049 (whole entry, looked up): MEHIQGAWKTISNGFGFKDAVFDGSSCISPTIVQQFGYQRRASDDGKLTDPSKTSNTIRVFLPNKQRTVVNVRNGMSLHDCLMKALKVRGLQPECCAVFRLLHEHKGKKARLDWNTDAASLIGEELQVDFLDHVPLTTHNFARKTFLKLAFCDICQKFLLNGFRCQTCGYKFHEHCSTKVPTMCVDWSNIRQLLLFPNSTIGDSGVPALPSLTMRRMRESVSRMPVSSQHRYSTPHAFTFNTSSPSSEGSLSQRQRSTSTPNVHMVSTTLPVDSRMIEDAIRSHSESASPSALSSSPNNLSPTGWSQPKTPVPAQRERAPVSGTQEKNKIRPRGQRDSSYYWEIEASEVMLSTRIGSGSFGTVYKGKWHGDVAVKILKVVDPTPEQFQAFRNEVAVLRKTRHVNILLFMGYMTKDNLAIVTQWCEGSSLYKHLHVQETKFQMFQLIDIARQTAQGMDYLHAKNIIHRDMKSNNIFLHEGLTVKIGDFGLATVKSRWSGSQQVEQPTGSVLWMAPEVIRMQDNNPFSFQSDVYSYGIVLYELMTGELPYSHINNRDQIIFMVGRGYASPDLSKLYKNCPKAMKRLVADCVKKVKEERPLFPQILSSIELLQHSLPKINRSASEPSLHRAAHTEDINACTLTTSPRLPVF

Series 1
SMILES: Cc1ccc(NC(=O)c2ccnc(C(F)(F)F)c2)cc1-c1cc(OCCO)nc(N2CCOCC2)c1
Concentration: 1 µM
target	technique	refers to	setting	baseline	remaining binding [%]
Serine/threonine-protein kinase Nek10 (NEK10, Homo sapiens, UniProt Q6ZWH5)	competitive binding panel	–	–	vehicle	98
Activin receptor type-2B (ACVR2B, Homo sapiens, UniProt Q13705)	competitive binding panel	–	–	vehicle	87
Protein kinase C theta type (PRKCQ, Homo sapiens, UniProt Q04759)	competitive binding panel	–	–	vehicle	99
SRSF protein kinase 2 (SRPK2, Homo sapiens, UniProt P78362)	competitive binding panel	–	–	vehicle	100
Serine/threonine-protein kinase Nek11 (NEK11, Homo sapiens, UniProt Q8NG66)	competitive binding panel	–	–	vehicle	88
Serine/threonine-protein kinase pim-2 (PIM2, Homo sapiens, UniProt Q9P1W9)	competitive binding panel	–	–	vehicle	82
Mitogen-activated protein kinase kinase kinase kinase 5 (MAP4K5, Homo sapiens, UniProt Q9Y4K4)	competitive binding panel	–	–	vehicle	98
Dual serine/threonine and tyrosine protein kinase (DSTYK, Homo sapiens, UniProt Q6XUX3)	competitive binding panel	RIPK5	–	vehicle	90
Hepatocyte growth factor receptor (MET, Homo sapiens, UniProt P08581)	competitive binding panel	–	–	vehicle	100
RAF proto-oncogene serine/threonine-protein kinase (RAF1, Homo sapiens, UniProt P04049)	competitive binding panel	–	–	vehicle	1.2
Ribosomal protein S6 kinase alpha-5 (RPS6KA5, Homo sapiens, UniProt O75582)	competitive binding scan	–	C-terminal kinase domain 2	–	100
Cyclin-dependent kinase 15 (CDK15, Homo sapiens, UniProt Q96Q40)	competitive binding	–	PFTAIRE2	–	100
Serine/threonine-protein kinase 38 (STK38, Homo sapiens, UniProt Q15208)	competitive binding panel	NDR1	–	vehicle	97
Tyrosine-protein kinase Tec (TEC, Homo sapiens, UniProt P42680)	competitive binding panel	–	–	vehicle	90

Series 2
Cell line: normal organoid sample E
Technique: CellTiter-Glo
Species: human
Medium: normal-adjacent epithelium
Concentration: 0.1 µM
Baseline: DMSO
Structure (SMILES)	viability
CC(C)CC(=O)N1CCc2nc(-c3ccc(Br)cc3)nc(N(C)Cc3ccccc3)c2C1	148% and 172%
O=C(c1ccc(F)cc1)N1CC(COc2ccc(Br)cc2)(C(=O)O)C1	92.3% and 101%
Cc1c[nH]c2nccc(Oc3c(F)cc(Nc4cc(Cl)nc(N)n4)cc3F)c12	121% and 143%
COc1ccc2cc(OCC3(C(=O)O)CN(C(=O)c4ccc(F)cc4)C3)ccc2c1	114% and 111%
COCCOc1nc(-c2ccc(Cl)nc2)nc2c1CN(C(=O)c1ncn3ccccc13)CC2	136% and 126%
O=C(Nc1ccc(Oc2ccc(F)cc2)cc1)N1CCc2ncccc2[C@H]1c1ccc(F)cc1	127% and 140%
CS(=O)(=O)NCC[C@H](NC(=O)c1cncc2c1cnn2-c1ccc(F)cc1)c1ccnc(S(C)(=O)=O)c1	200% and 105%

Series 3
Target: Tyrosine-protein kinase CSK (CSK, Homo sapiens, UniProt P41240)
Chain of UniProt P41240 (whole entry, looked up): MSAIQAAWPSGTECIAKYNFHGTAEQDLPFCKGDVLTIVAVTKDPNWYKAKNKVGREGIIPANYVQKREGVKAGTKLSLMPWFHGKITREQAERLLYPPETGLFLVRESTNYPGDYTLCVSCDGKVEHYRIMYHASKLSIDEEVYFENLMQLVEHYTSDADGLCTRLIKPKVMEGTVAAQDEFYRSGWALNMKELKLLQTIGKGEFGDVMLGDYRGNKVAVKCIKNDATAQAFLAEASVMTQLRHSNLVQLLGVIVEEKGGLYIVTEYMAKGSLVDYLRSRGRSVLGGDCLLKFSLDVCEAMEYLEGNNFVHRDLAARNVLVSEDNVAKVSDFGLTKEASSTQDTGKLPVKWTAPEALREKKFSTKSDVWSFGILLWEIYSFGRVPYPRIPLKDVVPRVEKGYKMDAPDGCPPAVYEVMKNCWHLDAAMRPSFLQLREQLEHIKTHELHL
Read-out: enzyme activity
Mode: inhibitor
Concentration: 0.5 µM
Baseline: control
Structure (SMILES)	remaining activity
CN(C)C[C@H]1CCn2c(c(C3=C(c4cn(C)c5ccccc45)C(=O)NC3=O)c3ccccc32)C1	104%
Cc1nc2cc3nc(-c4cccs4)cnc3cc2n1C	101%
Cn1nc2c3c(cccc31)C(=O)c1ccccc1-2	88.7%
CCN(CC)CCNC(=O)c1c(C)[nH]c(/C=C2\C(=O)Nc3ccc(F)cc32)c1C	90.2%
c1ccc(-c2cnc(Nc3ccc(OCCN4CCCC4)cc3)s2)cc1	89.9%
O=C(Nc1cccc(Nc2nccc(Nc3cccc(C(F)(F)F)c3)n2)c1)C1CC1	97.4%
CCOc1nc(NC(=O)Cc2cc(OC)ccc2OC)cc(N)c1C#N	95.1%
c1ccc(-c2[nH]ncc2-c2ccnc3ccccc23)nc1	102%
Ic1cccc(CSc2nnc(-c3ccncc3)o2)c1	101%
CCN(CC)CCNC(=O)c1c(C)[nH]c(/C=C2\C(=O)Nc3ccc(Cl)cc32)c1C	86.3%
COc1cc2ncnc(Nc3ccc(O)c(Br)c3)c2cc1OC	91.6%
O=C1C(Cl)=C(N2C(=O)CCC2=O)C(=O)c2ccccc21	79.5%
COc1cc2c(cc1OC)-c1[nH]nc(Nc3cccc(F)c3)c1C2	44.9%
Nc1cccc(-c2cc3c(Oc4cccc(O)c4)ncnc3[nH]2)c1	43.6%
C[C@@H]1CCN(C(=O)CC#N)C[C@@H]1N(C)c1ncnc2[nH]ccc12	101%
N#C/C(=C\c1ccc(O)c(O)c1)C(=O)NCc1ccccc1	101%
O=C(NC(NC(=S)Nc1ccc(F)c([N+](=O)[O-])c1)C(Cl)(Cl)Cl)C(c1ccccc1)c1ccccc1 (stereo not drawn)	99.3%
Cc1cn(-c2cc(NC(=O)c3ccc(C)c(Nc4nccc(-c5cccnc5)n4)c3)cc(C(F)(F)F)c2)cn1	42.4%
O=c1cc(-c2cccc3c2Sc2ccccc2S3)oc(N2CCOCC2)c1	95.7%
Cc1cc2ncc(-c3ccccc3)nc2cc1C	96.5%
N#Cc1c(NC(=O)c2cccc3ccccc23)sc2c1CCCC2	91.5%
COc1cc2ncnc(Nc3cccc(Cl)c3)c2cc1OC	91.1%
CCN(CC)C(=O)c1ccc(Nc2nc(OCC3CCCCC3)c3[nH]cnc3n2)cc1	83.1%

Series 4
Structure (SMILES): CC(C)[C@H](CO)Nc1nc(Nc2cccc(Cl)c2)c2ncn(C(C)C)c2n1
target	read-out	technique	organism	medium	IC50 [µM]
Trypanosoma brucei protein Tb427tmp.211.4513	binding	kinobead competition	–	Trypanosoma brucei lysate	> 10
Trypanosoma brucei protein Tb427tmp.01.1680	binding	kinobead competition	–	Trypanosoma brucei lysate	> 10
Trypanosoma brucei NEK Tb427tmp.02.4530	binding	kinobead competition	–	Trypanosoma brucei lysate	> 10
protein Tb427tmp.01.8510	–	kinobead TMT proteomics	Trypanosoma brucei	cell lysate	> 10
protein Tb427tmp.01.8470	–	kinobead TMT proteomics	Trypanosoma brucei	cell lysate	> 10
protein Tb427tmp.02.2030	–	kinobead TMT proteomics	Trypanosoma brucei	cell lysate	> 10
Tyrosine-protein kinase ABL1 (ABL1, Homo sapiens, UniProt P00519)	–	–	–	–	> 10
Trypanosoma brucei protein Tb427tmp.02.2040	binding	kinobead competition	–	Trypanosoma brucei lysate	> 10
Trypanosoma brucei kinase Tb427tmp.01.0930	binding	kinobead competition	–	Trypanosoma brucei lysate	> 10
Trypanosoma brucei protein Tb427tmp.01.2460	binding	kinobead competition	–	Trypanosoma brucei lysate	> 10

Repeated from above (series 3):
Structure (SMILES)	remaining activity
Cc1nc2cc3nc(-c4cccs4)cnc3cc2n1C	101%
Cn1nc2c3c(cccc31)C(=O)c1ccccc1-2	88.7%
CCN(CC)CCNC(=O)c1c(C)[nH]c(/C=C2\C(=O)Nc3ccc(F)cc32)c1C	90.2%
c1ccc(-c2cnc(Nc3ccc(OCCN4CCCC4)cc3)s2)cc1	89.9%
O=C(Nc1cccc(Nc2nccc(Nc3cccc(C(F)(F)F)c3)n2)c1)C1CC1	97.4%
CCOc1nc(NC(=O)Cc2cc(OC)ccc2OC)cc(N)c1C#N	95.1%
c1ccc(-c2[nH]ncc2-c2ccnc3ccccc23)nc1	102%
